Measurements gathered from unrelated publications.
Each numbered part is a random draw from the data of one study; scales do not carry over between parts. Several values in a cell are separate wells, animals, samples, runs or records.
Sequence of UniProt P49760 (whole entry, looked up): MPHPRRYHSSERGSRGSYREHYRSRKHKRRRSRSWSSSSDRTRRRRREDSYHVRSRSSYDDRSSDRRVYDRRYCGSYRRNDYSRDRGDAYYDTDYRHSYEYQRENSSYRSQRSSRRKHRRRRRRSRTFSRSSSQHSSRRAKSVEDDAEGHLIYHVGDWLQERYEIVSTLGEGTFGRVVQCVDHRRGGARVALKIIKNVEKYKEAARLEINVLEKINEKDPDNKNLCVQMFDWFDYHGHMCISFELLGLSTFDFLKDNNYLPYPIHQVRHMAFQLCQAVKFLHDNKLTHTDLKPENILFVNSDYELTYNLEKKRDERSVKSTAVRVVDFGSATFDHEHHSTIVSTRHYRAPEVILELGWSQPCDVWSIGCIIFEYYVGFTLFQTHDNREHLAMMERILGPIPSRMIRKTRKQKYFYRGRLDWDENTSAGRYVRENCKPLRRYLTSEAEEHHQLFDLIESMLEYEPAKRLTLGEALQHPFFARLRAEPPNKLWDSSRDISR
Sequence of UniProt P17948 (whole entry, looked up): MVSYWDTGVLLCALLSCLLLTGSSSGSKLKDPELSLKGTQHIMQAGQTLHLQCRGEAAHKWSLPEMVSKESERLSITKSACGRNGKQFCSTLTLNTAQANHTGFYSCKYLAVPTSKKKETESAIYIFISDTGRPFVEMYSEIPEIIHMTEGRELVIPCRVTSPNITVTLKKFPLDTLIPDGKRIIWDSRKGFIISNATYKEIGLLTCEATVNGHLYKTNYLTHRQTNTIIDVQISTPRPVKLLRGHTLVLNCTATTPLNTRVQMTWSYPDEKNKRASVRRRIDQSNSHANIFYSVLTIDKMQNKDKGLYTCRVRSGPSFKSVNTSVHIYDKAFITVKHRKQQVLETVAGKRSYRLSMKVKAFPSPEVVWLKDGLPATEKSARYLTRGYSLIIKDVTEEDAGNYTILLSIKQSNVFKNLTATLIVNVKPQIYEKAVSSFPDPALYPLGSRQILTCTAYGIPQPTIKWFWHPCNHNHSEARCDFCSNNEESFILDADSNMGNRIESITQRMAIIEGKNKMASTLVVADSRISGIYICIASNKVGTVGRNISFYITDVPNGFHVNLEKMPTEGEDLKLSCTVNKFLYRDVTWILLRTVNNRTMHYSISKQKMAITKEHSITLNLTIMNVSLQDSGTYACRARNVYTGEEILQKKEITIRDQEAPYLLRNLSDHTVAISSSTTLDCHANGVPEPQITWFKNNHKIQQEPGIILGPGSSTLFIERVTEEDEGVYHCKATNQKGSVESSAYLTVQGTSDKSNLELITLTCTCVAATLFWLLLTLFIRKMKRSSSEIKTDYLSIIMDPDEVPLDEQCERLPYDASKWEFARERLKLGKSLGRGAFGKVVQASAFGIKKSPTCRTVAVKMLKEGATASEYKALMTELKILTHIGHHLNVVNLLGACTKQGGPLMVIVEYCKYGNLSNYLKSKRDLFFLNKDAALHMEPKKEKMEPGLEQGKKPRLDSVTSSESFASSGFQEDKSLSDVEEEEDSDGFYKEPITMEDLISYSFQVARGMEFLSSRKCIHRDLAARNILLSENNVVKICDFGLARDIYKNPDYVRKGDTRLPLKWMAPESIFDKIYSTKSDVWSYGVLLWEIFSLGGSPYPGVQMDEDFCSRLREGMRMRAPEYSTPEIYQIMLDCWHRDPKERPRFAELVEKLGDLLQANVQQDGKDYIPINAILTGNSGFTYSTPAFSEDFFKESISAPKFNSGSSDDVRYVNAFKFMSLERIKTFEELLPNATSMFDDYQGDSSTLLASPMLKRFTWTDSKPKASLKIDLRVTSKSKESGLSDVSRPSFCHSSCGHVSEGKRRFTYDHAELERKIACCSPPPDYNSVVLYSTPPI
Sequence of UniProt Q9UQ88 (whole entry, looked up): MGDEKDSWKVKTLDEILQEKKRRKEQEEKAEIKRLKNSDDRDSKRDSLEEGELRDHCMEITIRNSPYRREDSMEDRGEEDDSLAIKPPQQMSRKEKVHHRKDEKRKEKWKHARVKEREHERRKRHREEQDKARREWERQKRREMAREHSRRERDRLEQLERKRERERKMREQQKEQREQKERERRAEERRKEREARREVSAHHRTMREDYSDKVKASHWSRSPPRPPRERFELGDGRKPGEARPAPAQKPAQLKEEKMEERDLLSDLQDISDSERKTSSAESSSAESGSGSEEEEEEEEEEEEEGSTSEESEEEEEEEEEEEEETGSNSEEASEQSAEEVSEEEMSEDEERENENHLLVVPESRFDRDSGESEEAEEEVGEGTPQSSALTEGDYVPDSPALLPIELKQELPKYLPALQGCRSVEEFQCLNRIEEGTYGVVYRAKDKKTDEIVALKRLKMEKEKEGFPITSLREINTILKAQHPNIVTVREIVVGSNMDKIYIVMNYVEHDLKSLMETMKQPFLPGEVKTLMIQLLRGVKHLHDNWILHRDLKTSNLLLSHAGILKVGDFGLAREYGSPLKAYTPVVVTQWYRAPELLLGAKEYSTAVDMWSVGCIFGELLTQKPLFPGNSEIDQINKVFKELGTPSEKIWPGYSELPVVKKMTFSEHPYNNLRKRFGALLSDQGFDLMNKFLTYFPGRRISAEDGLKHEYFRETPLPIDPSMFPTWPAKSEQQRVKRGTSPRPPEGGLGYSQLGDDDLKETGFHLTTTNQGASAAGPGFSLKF
Sequence of UniProt Q9UBE8 (whole entry, looked up): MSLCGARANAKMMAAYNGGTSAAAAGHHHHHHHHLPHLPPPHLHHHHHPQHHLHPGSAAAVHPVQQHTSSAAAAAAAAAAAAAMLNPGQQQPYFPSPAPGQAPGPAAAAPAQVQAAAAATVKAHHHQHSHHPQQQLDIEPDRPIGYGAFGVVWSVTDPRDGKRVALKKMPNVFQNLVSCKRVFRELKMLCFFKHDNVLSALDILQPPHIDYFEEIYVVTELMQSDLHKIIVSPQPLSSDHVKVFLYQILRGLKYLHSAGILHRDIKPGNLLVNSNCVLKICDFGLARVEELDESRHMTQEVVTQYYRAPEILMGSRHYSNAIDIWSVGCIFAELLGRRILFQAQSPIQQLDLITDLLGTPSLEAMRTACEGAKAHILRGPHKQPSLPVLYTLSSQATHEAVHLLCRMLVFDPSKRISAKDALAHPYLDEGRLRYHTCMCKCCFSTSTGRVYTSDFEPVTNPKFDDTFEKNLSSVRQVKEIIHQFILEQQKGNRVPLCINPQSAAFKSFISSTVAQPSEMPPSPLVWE
Sequence of UniProt P48730 (whole entry, looked up): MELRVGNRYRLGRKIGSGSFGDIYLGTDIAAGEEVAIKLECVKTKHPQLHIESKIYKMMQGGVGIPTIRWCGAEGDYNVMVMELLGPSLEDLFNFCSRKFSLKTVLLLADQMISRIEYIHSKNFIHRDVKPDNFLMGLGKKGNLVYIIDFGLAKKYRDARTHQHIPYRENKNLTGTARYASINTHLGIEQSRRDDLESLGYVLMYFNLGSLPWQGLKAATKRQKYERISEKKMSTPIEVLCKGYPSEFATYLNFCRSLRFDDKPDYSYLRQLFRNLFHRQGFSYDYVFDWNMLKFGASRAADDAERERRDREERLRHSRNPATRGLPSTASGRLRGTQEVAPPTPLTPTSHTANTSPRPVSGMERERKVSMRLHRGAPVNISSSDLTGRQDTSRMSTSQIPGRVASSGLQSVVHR
Sequence of UniProt P16591 (whole entry, looked up): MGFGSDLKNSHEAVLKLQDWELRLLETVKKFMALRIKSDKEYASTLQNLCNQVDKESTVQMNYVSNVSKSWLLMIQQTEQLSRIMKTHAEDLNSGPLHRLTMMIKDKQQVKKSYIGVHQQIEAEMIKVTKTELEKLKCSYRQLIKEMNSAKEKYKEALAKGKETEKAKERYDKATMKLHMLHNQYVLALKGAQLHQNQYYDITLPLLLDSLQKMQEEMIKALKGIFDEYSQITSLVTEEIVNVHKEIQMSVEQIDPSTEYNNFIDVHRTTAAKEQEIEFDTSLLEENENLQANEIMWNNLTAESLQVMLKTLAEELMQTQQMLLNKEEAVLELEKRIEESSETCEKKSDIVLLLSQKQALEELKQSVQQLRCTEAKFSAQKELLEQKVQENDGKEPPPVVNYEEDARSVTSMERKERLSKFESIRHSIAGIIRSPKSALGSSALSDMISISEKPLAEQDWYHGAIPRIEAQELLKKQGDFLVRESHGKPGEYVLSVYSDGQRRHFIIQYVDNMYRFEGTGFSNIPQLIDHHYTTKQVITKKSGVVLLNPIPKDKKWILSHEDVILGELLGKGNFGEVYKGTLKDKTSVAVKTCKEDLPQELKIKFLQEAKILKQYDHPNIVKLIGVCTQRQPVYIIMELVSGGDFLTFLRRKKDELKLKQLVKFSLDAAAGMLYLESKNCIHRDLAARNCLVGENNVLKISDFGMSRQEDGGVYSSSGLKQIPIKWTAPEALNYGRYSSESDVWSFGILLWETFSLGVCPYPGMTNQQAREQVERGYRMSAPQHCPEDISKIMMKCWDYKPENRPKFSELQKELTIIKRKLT
Sequence of UniProt P49759 (whole entry, looked up): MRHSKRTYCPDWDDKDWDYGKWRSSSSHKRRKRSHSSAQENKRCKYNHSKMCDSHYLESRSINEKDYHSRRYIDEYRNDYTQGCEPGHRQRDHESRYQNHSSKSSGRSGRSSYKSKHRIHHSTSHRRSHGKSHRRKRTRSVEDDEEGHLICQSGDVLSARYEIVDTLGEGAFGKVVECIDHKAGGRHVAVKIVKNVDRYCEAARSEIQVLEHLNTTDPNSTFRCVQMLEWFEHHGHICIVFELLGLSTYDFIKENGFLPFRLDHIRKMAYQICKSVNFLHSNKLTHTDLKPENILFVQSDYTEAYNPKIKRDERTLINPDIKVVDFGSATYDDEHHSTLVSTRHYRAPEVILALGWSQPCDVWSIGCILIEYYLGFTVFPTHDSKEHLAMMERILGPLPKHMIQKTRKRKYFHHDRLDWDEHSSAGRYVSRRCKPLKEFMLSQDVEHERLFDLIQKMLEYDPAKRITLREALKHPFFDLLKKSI

Series 1 — cell line: mouse MPNST tumor cells; method: high-content nuclear imaging; item: cell number; concentration: 10 µM; time: 12 h; setting: mean of 2 replicates; baseline: plate mean; reading: higher = more cells
SMILES	nuclei count
O=C(Nc1cnc(Cl)nc1)c1ccc(F)c(F)c1	1.26 z-score
CO[C@H]1CNC[C@@H](OCC2CCC(F)(F)CC2)[C@@H]1Nc1ncc(-c2cncc(C)c2)c2cc(C)c(=O)[nH]c12	4.44 z-score
Nc1nc(Cl)nc2c1ncn2[C@@H]1O[C@H](CO)[C@@H](O)[C@H]1O	0.697 z-score
CN1Cc2c(N)cccc2C(c2ccccc2)C1 (stereo not shown)	3.13 z-score and 1.47 z-score
O=c1[nH]cc(F)c(=O)[nH]1	-2.97 z-score and -1.48 z-score
CN(C)CCC1(c2ccc(Cl)cc2)Cc2ccccc2C(=O)O1 (stereo not shown)	0.479 z-score
Clc1cccc(CN=C2Nc3ccccc3NC23CCNCC3)c1	-5.43 z-score
COc1ccc2[nH]c3c(-c4cccc5ccccc45)nccc3c2c1	-4.03 z-score
Cc1cnc(Nc2ccc(F)cc2Cl)nc1-c1c[nH]c(C(=O)N[C@H](CO)c2cccc(Cl)c2)c1	-0.984 z-score
CC(N)C12CC3CC(CC(C3)C1)C2 (stereo not shown)	2.31 z-score
N[C@@H]1CCCCN(c2c(F)cc3c(=O)c(C(=O)O)cn(C4CC4)c3c2Cl)C1	0.485 z-score
CCCn1c(=O)[nH]c2nc(-c3ccc(S(=O)(=O)O)cc3)[nH]c2c1=O	1.35 z-score
CC(C)c1ccc(C(=O)N=C(N)N)cc1S(C)(=O)=O	1.69 z-score

Series 2 — observed: enzyme activity; mode: inhibitor; concentration: 0.5 µM; baseline: control
SMILES: O=c1c(-c2ccc(F)cc2)c(-c2ccncc2)[nH]n1-c1ccc(Cl)cc1
target	remaining activity [%]
Serine/threonine-protein kinase SIK2 (SIK2, Homo sapiens, UniProt Q9H0K1)	101
Ephrin type-A receptor 6 (EPHA6, Homo sapiens, UniProt Q9UF33)	57
Dual specificity protein kinase CLK2 (CLK2, Homo sapiens, UniProt P49760)	99
Serine/threonine-protein kinase Sgk2 (SGK2, Homo sapiens, UniProt Q9HBY8)	94.3
Serine/threonine-protein kinase PAK 1 (PAK1, Homo sapiens, UniProt Q13153)	92.3
Muscle, skeletal receptor tyrosine-protein kinase (MUSK, Homo sapiens, UniProt O15146)	102
Dual specificity protein kinase CLK1 (CLK1, Homo sapiens, UniProt P49759)	97
Tyrosine-protein kinase JAK1 (JAK1, Homo sapiens, UniProt P23458)	103
Cyclin-dependent kinase 2, with cyclin E (CDK2, Homo sapiens, UniProt P24941)	89.1
Casein kinase I isoform epsilon (CSNK1E, Homo sapiens, UniProt P49674)	35
Casein kinase I isoform delta (CSNK1D, Homo sapiens, UniProt P48730)	26.7
Ribosomal protein S6 kinase alpha-3 (RPS6KA3, Homo sapiens, UniProt P51812)	94.3
Serine/threonine-protein kinase PAK 6 (PAK6, Homo sapiens, UniProt Q9NQU5)	73.5
SRSF protein kinase 1 (SRPK1, Homo sapiens, UniProt Q96SB4)	97.9
Ephrin type-A receptor 2 (EPHA2, Homo sapiens, UniProt P29317)	101
Calcium/calmodulin-dependent protein kinase kinase 1 (CAMKK1, Homo sapiens, UniProt Q8N5S9)	98.5
Tyrosine-protein kinase Tec (TEC, Homo sapiens, UniProt P42680)	112
Protein kinase C theta type (PRKCQ, Homo sapiens, UniProt Q04759)	119
Tyrosine-protein kinase receptor TYRO3 (TYRO3, Homo sapiens, UniProt Q06418)	105
Calcium/calmodulin-dependent protein kinase type 1 (CAMK1, Homo sapiens, UniProt Q14012)	94.4
Insulin-like growth factor 1 receptor (IGF1R, Homo sapiens, UniProt P08069)	92.8
Mitogen-activated protein kinase kinase kinase 20 (MAP3K20, Homo sapiens, UniProt Q9NYL2)	91.2
Vascular endothelial growth factor receptor 1 (FLT1, Homo sapiens, UniProt P17948)	81.3

Series 3 — cell line: A-375; concentration: 100 µM; time: 36 h
Structure (SMILES)	viability
CC(=O)O[C@]1(C(C)=O)CC[C@H]2[C@@H]3CCC4=CC(=O)CCC4=C3[C@@H](c3ccc(N(C)C)cc3)C[C@@]21C	80.4%
CCCc1nc2c(C)cc(-c3nc4ccccc4n3C)cc2n1Cc1ccc(-c2ccccc2C(=O)O)cc1	68%
CNS(=O)(=O)Cc1ccc2[nH]cc(CCN(C)C)c2c1	86.1%
CCCC1O[C@@H]2C[C@H]3[C@@H]4CCC5=CC(=O)C=C[C@]5(C)[C@H]4[C@@H](O)C[C@]3(C)[C@]2(C(=O)CO)O1 (stereo partly shown)	38.6%
N#C[C@@H]1CCCN1C(=O)CNC12CC3CC(CC(O)(C3)C1)C2	97.3%
CC=Cc1ccc(OC)cc1	86.9%
CC(=O)N[C@@H](CS)C(=O)O	106%
CC#CCn1c(N2CCC[C@@H](N)C2)nc2c1c(=O)n(Cc1nc(C)c3ccccc3n1)c(=O)n2C	21.6%
Cc1nc(C)c(C)nc1C	118%

Series 4 — concentration: 1 µM
Compound: CCc1ccccc1C(=O)Nc1n[nH]c2c(C)c(F)c(C3C(C#N)=C(C)N(C)C(C)=C3C#N)cc12
target	observed	method	remaining binding [%]
Serine/threonine-protein kinase DCLK2 (DCLK2, Homo sapiens, UniProt Q8N568)	cell-free assay	competition with immobilised ligand	64
Epidermal growth factor receptor (EGFR, Homo sapiens, UniProt P00533, del747-752/P753S)	cell-free assay	competition with immobilised ligand	79
Death-associated protein kinase 3 (DAPK3, Homo sapiens, UniProt O43293)	cell-free assay	competition with immobilised ligand	71
Vascular endothelial growth factor receptor 1 (FLT1, Homo sapiens, UniProt P17948)	cell-free assay	competition with immobilised ligand	72
Activin receptor type-2A (ACVR2A, Homo sapiens, UniProt P27037)	cell-free assay	competition with immobilised ligand	100
Serine/threonine-protein kinase NLK (NLK, Homo sapiens, UniProt Q9UBE8)	binding	competition with immobilised ligand	100
Receptor-type tyrosine-protein kinase FLT3 (FLT3, Homo sapiens, UniProt P36888, D835V)	cell-free assay	competition with immobilised ligand	3.2
Epidermal growth factor receptor (EGFR, Homo sapiens, UniProt P00533, L858R/T790M)	cell-free assay	competition with immobilised ligand	97
Ephrin type-A receptor 1 (EPHA1, Homo sapiens, UniProt P21709)	cell-free assay	competition with immobilised ligand	60
Serine/threonine-protein kinase VRK2 (VRK2, Homo sapiens, UniProt Q86Y07)	cell-free assay	competition with immobilised ligand	100
Receptor-type tyrosine-protein kinase FLT3 (FLT3, Homo sapiens, UniProt P36888, ITD)	cell-free assay	competition with immobilised ligand	11
Dual specificity protein kinase CLK2 (CLK2, Homo sapiens, UniProt P49760)	cell-free assay	competition with immobilised ligand	55
STE20/SPS1-related proline-alanine-rich protein kinase (STK39, Homo sapiens, UniProt Q9UEW8)	cell-free assay	competition with immobilised ligand	100
Ephrin type-B receptor 2 (EPHB2, Homo sapiens, UniProt P29323)	cell-free assay	competition with immobilised ligand	76
Serine/threonine-protein kinase SIK1 (SIK1, Homo sapiens, UniProt P57059)		competition binding	66
Myosin light chain kinase 2, skeletal/cardiac muscle (MYLK2, Homo sapiens, UniProt Q9H1R3)	binding	competition with immobilised ligand	80
Cyclin-dependent kinase 11A (CDK11A, Homo sapiens, UniProt Q9UQ88)	binding	competition with immobilised ligand	86
Leukocyte tyrosine kinase receptor (LTK, Homo sapiens, UniProt P29376)	cell-free assay	competition with immobilised ligand	94
Calcium/calmodulin-dependent protein kinase type II subunit gamma (CAMK2G, Homo sapiens, UniProt Q13555)	binding	competition with immobilised ligand	79
Epidermal growth factor receptor (EGFR, Homo sapiens, UniProt P00533, A750P/del747-749)	cell-free assay	competition with immobilised ligand	100
Tyrosine-protein kinase Lyn (LYN, Homo sapiens, UniProt P07948)	cell-free assay	competition with immobilised ligand	86
cAMP-dependent protein kinase catalytic subunit PRKX (PRKX, Homo sapiens, UniProt P51817)	cell-free assay	competition with immobilised ligand	88
Serine/threonine-protein kinase Nek4 (NEK4, Homo sapiens, UniProt P51957)	cell-free assay	competition with immobilised ligand	100
Tyrosine-protein kinase Fer (FER, Homo sapiens, UniProt P16591)	cell-free assay	competition with immobilised ligand	90
Serine/threonine-protein kinase Nek7 (NEK7, Homo sapiens, UniProt Q8TDX7)	cell-free assay	competition with immobilised ligand	83

Excerpt of the above (series 4):
target	observed	method	remaining binding [%]
Death-associated protein kinase 3 (DAPK3, Homo sapiens, UniProt O43293)	cell-free assay	competition with immobilised ligand	71
Serine/threonine-protein kinase DCLK2 (DCLK2, Homo sapiens, UniProt Q8N568)	cell-free assay	competition with immobilised ligand	64
Calcium/calmodulin-dependent protein kinase type II subunit gamma (CAMK2G, Homo sapiens, UniProt Q13555)	binding	competition with immobilised ligand	79
Activin receptor type-2A (ACVR2A, Homo sapiens, UniProt P27037)	cell-free assay	competition with immobilised ligand	100
Epidermal growth factor receptor (EGFR, Homo sapiens, UniProt P00533, L858R/T790M)	cell-free assay	competition with immobilised ligand	97
Dual specificity protein kinase CLK2 (CLK2, Homo sapiens, UniProt P49760)	cell-free assay	competition with immobilised ligand	55
Serine/threonine-protein kinase SIK1 (SIK1, Homo sapiens, UniProt P57059)		competition binding	66
Receptor-type tyrosine-protein kinase FLT3 (FLT3, Homo sapiens, UniProt P36888, D835V)	cell-free assay	competition with immobilised ligand	3.2
STE20/SPS1-related proline-alanine-rich protein kinase (STK39, Homo sapiens, UniProt Q9UEW8)	cell-free assay	competition with immobilised ligand	100
Serine/threonine-protein kinase VRK2 (VRK2, Homo sapiens, UniProt Q86Y07)	cell-free assay	competition with immobilised ligand	100
Leukocyte tyrosine kinase receptor (LTK, Homo sapiens, UniProt P29376)	cell-free assay	competition with immobilised ligand	94
